Measurements collected from several papers.
Lines come from different studies, so protocols differ. “And” joins repeats or separate records; there may be more than shown. ± marks the error that the study gave.
DRD3: D(3) dopamine receptor (DRD3, Homo sapiens, UniProt P35462)
UniProt P35462, sequence (whole entry, looked up): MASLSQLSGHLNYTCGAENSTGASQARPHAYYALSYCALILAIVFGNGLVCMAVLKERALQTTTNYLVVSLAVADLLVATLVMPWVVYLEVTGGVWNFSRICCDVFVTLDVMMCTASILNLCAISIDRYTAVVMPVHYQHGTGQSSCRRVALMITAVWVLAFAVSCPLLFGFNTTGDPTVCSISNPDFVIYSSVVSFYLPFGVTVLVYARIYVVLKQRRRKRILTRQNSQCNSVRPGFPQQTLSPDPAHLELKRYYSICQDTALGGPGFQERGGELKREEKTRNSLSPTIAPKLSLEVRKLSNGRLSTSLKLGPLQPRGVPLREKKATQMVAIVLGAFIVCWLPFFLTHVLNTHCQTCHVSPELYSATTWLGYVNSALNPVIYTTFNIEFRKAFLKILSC
CCKBR: Gastrin/cholecystokinin type B receptor (CCKBR, Homo sapiens, UniProt P32239)
UniProt A5GZW8, sequence (whole entry, looked up): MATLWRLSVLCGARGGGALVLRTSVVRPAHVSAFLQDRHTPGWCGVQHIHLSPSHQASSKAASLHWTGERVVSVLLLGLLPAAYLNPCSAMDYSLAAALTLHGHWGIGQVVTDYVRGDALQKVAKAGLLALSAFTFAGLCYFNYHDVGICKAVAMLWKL
UniProt Q007T0, sequence (whole entry, looked up): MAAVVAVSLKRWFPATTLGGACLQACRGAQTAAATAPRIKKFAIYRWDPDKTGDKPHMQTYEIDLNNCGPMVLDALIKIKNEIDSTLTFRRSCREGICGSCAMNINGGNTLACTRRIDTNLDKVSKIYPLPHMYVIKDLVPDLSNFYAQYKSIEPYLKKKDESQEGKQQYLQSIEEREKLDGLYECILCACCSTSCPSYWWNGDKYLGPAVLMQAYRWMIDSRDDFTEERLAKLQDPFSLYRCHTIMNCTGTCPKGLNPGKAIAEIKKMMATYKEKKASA
UniProt P06276, sequence (whole entry, looked up): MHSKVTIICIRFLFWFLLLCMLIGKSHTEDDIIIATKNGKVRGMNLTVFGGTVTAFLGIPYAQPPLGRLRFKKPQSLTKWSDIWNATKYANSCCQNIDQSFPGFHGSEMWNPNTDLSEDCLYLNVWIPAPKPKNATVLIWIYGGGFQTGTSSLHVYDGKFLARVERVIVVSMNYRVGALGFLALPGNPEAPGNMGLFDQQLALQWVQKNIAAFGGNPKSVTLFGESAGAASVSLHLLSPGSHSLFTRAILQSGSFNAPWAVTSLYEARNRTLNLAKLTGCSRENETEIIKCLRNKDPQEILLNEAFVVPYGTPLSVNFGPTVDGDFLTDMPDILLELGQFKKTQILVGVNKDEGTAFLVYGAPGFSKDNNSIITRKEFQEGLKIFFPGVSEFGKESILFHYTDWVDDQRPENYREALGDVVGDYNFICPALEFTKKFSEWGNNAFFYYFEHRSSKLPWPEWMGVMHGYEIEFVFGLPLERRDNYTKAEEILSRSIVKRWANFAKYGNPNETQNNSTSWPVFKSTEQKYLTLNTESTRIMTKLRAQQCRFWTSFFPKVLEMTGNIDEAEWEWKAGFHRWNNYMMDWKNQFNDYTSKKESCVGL
UniProt P32239, sequence (whole entry, looked up): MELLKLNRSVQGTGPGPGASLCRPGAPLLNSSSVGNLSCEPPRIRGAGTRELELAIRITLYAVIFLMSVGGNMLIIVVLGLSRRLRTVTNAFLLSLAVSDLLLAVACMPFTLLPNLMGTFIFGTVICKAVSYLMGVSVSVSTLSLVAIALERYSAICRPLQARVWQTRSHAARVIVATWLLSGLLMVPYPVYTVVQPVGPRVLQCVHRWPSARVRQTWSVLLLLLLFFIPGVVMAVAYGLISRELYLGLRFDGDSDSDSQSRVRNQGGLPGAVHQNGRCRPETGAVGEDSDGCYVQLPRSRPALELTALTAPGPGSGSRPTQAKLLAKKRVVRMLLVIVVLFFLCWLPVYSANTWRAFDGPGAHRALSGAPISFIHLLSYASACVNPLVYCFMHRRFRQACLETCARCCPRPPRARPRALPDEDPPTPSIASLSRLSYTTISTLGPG
UniProt D0VWV4, sequence (whole entry, looked up): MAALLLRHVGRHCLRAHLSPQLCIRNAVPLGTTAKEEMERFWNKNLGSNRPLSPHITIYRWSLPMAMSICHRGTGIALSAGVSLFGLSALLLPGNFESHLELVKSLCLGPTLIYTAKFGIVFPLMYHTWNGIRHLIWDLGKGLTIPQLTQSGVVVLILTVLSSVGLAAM
UniProt O43570, sequence (whole entry, looked up): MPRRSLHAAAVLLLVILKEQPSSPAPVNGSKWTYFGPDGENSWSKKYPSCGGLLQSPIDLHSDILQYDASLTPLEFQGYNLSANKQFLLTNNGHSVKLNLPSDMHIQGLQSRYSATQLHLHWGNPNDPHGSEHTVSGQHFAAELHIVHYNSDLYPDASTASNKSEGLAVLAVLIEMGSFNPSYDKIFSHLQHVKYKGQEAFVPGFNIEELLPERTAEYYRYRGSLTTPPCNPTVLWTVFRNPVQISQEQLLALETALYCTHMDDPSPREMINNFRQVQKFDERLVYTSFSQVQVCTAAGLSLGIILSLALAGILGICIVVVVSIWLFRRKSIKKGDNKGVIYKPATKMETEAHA
UniProt P62813, sequence (whole entry, looked up): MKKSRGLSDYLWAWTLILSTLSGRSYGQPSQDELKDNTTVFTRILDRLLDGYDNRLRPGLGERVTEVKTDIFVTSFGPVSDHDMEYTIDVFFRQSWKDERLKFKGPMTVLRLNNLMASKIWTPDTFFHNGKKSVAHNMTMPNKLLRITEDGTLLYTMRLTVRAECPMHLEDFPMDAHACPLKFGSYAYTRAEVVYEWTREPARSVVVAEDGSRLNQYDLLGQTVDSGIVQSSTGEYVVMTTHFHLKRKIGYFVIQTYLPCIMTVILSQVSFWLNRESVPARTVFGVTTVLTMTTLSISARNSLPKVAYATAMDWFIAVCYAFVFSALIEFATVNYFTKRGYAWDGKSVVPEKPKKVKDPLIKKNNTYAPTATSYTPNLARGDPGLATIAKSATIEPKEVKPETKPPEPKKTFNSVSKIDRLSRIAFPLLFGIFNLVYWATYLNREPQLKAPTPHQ
UniProt Q8TB40, sequence (whole entry, looked up): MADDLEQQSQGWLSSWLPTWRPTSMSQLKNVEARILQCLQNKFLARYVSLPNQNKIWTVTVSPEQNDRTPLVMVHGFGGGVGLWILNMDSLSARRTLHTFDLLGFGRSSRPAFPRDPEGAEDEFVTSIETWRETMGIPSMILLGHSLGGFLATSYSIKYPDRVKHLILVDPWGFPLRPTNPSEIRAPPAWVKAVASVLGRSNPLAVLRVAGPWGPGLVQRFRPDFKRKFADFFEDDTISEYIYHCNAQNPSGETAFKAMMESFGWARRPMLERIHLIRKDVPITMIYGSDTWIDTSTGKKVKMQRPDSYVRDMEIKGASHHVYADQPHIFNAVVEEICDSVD
UniProt P15823, sequence (whole entry, looked up): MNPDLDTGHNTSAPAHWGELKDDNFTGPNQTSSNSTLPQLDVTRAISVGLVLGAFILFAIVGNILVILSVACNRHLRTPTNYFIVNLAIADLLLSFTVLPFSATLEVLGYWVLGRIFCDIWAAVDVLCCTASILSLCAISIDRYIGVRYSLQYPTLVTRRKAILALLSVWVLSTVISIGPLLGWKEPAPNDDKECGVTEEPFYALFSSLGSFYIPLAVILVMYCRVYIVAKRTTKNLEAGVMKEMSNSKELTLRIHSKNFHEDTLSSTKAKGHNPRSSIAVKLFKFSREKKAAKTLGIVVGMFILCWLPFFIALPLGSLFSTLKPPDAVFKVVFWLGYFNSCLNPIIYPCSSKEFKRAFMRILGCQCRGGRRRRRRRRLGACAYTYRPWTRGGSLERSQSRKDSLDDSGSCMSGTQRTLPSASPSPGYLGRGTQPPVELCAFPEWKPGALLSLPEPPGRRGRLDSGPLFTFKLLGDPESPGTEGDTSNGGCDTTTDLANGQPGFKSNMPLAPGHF
UniProt O42275, sequence (whole entry, looked up): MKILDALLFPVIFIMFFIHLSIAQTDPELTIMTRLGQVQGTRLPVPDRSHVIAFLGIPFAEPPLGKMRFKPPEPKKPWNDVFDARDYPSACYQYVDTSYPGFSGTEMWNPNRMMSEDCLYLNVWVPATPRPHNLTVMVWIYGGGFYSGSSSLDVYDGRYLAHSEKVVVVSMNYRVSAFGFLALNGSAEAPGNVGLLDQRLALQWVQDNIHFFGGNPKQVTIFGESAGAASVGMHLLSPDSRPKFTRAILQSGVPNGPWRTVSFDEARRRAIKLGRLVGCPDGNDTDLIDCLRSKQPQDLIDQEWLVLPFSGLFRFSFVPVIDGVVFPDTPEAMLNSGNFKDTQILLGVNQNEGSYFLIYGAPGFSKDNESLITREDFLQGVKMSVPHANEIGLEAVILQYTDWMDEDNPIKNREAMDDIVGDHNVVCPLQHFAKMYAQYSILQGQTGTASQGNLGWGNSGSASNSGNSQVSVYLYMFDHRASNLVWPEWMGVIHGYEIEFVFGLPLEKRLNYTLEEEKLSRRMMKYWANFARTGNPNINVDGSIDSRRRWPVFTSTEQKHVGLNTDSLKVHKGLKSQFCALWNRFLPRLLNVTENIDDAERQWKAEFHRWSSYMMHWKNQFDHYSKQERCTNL
UniProt Q05941, sequence (whole entry, looked up): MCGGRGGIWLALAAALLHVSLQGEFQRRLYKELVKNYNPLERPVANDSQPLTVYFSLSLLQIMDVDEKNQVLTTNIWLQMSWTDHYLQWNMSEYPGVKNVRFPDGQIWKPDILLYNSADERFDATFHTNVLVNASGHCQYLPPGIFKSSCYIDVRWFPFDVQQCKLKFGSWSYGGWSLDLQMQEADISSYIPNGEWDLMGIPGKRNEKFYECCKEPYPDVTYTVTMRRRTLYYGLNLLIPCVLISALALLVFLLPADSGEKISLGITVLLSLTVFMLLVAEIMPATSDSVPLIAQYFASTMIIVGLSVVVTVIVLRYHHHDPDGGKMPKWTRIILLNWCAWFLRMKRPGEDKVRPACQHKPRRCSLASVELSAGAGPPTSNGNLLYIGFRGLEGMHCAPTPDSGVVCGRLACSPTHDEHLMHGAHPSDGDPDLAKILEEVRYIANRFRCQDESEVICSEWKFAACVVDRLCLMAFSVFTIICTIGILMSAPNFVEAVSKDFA

| SMILES | tested on | test | test system | conditions | scale | quantity | result |
| --- | --- | --- | --- | --- | --- | --- | --- |
| COc1cc(/C=C/c2ccc(O)cc2)cc(OC)c1 | O-methyltransferase (Sorghum bicolor, UniProt A0A1B6PFV1, W279A) | isothermal titration calorimetry | – | added: RSV | – | -T∆S | 0.653 kcal/mol |
| CC(=O)N[C@@H](CS)C(=O)N[C@@H](CCCNC(=N)N)C(=O)N[C@@H](CCCCN)C(=O)N[C@@H](CCCNC(=N)N)C(=O)N[C@@H](CC(N)=O)C(=O)N[C@@H](CCCNC(=N)N)C(=O)N[C@@H](CO)C(=O)N1CCC[C@H]1C(=O)N[C@@H](CCC(=O)O)C(=O)N[C@@H](CCCNC(=N)N)C(N)=O | WD repeat-containing protein 5 (WDR5, Homo sapiens, UniProt P61964) | binding, competitor of LANA peptide, ITC | – | pH 7.0, 20 °C, WIN motif peptide | – | ΔH | -10.5 kcal/mol |
| O=C1CN(C(=O)CCn2ccnc2)CC(O)CN1CCc1ccccc1 (centres unmarked) | Cholinesterase (BCHE, Homo sapiens, UniProt P06276) | inhibitor | – | 1.5 µM | – | apparent Vmax | 0.24 ± 0.02 µM/min |
| Nc1ncc(-c2nc(N3CCOCC3)nc(N3CCOCC3)n2)c(C(F)F)n1 | Tyrosine-protein kinase ABL1, phosphorylated (ABL1, Homo sapiens, UniProt P00519, F317L) | KINOMEscan | – | 10 µM | – | remaining binding | 86% |
| O=C(O)C1=CC(O)CC1 (centres unmarked) | Calcium/calmodulin-dependent protein kinase type II subunit alpha, hub domain (CAMK2A, Homo sapiens, UniProt Q9UQM7) | intrinsic Trp fluorescence | – | concentration not given, wild-type hub domain | – | tryptophan fluorescence quenching | no effect |
| Cc1onc(-c2c(Cl)cccc2Cl)c1C(=O)N[C@@H]1C(=O)N2[C@@H]1SC(C)(C)[C@@H]2C(=O)O | Penicillin-binding protein 2B (Streptococcus pneumoniae, UniProt P0A3M6) | inhibitor | – | – | – | kinact/KI | 3300 ± 620 M⁻¹ s⁻¹ |
| CCN(CC)C(=O)Oc1ccc(/C=C/C(=O)NC2CCN(Cc3ccccc3)CC2)cc1OC | Cholinesterase (BCHE, Equus caballus, UniProt P81908) | Ellman | equine serum BuChE | – | relative to: AChE IC50 over BuChE IC50 | selectivity ratio | 0.7 |
| CN(C(=O)n1cnc(-c2ccc[n+]([O-])c2)c1)C1CCCCC1 | Alpha-1B adrenergic receptor (Adra1b, Rattus norvegicus, UniProt P15823) | radioligand binding | – | 10 µM, added: [3H]prazosin | – | inhibition | 4% |
| O=C(c1ccc(Cl)cc1)N1CCN2C(=O)N(OC(=O)N3CCOc4ccccc43)C(=O)C2C1 (centres unmarked) | (Lyso)-N-acylphosphatidylethanolamine lipase (ABHD4, Homo sapiens, UniProt Q8TB40) | enzyme activity, inhibitor, MS-based ABPP | SW-620 in situ | 10 µM, 2 h, 37 °C | relative to: compound over DMSO, lower = stronger inhibition | median ratio | 1.03 |
| O=C(Nc1cnccc1Cl)N1CCN(Cc2ccc3c(c2)OC(F)(F)O3)CC1 | DRD3 | radioligand binding | – | 50 µM, added: [3H]spiperone | – | inhibition of binding | 26% |
| O=C1[O][Pt]2([NH][C@@H]3CCCC[C@H]3[NH]2)[O]C1=O | Neuronal acetylcholine receptor subunit alpha-7 (Chrna7, Rattus norvegicus, UniProt Q05941) | ion current, positive allosteric modulator | – | added: nicotine 25 µM | – | EC50 | inactive |
| N#C[Se]Cc1cc(=O)oc2cc(O)ccc12 | Carbonic anhydrase 12 (CA12, Homo sapiens, UniProt O43570) | stopped-flow CO2 hydration | – | – | relative to: Ki CA I over Ki CA XII | selectivity ratio | > 1070 |
| O=C1NC(=O)[C@](CNC(=O)c2cnn(-c3ccccc3)n2)(C2CC2)N1 | Plasminogen (PLG, Homo sapiens, UniProt P00747) | inhibitor | – | concentration not given | – | activity | inactive |
| CC[C@@H](C)[C@@H](NC(=O)[C@@H](Cc1ccc(O)cc1)NC(=O)[C@H]1CCCN1C(=O)[C@@H](CCCNC(=N)N)NC(=O)[C@H](N)Cc1c[nH]cn1)C(=O)N[C@H](C)C(=O)N[C@H](Cc1c[nH]cn1)C(=O)N[C@H](CCCNC(=N)N)C(=O)N[C@H](CCCCNC(=O)c1cccc(S(=O)(=O)F)c1)C(=O)N[C@H](Cc1ccc(O)cc1)C(=O)N[C@H](CO)C(=O)N[C@H](Cc1ccccc1)C(N)=O | Transferrin receptor protein 1 (Tfrc, Mus musculus, UniProt Q62351) | flow cytometry | RAW264.7 | 24 h, pH 6, replicate 3, unit not given | relative to: 0 h | surface TFRC expression | 0.926 |
| CC(C)[C@@H](O)CC[C@@H](C)[C@H]1CC[C@H]2[C@@H]3CC=C4C[C@@H](O)CC[C@]4(C)[C@H]3CC[C@]12C | Glutamate NMDA receptor; GRIN1/GRIN2B (GRIN1/GRIN2B, Homo sapiens, UniProt Q05586+Q13224, M555A) | positive allosteric modulator, two-electrode voltage clamp | Xenopus oocytes expressing GluN1-M555A | 10 µM, 0.02% cremophor, added: 100 µM glutamate and glycine | relative to: without compound | current response | 176 ± 7.9% |
| CC[C@H](C)[C@H]1O[C@]2(C=C[C@@H]1C)C[C@@H]1C[C@@H](C/C=C(\C)[C@@H](O[C@H]3C[C@H](OC)[C@@H](O[C@H]4C[C@H](OC)[C@@H](O)[C@H](C)O4)[C@H](C)O3)[C@@H](C)/C=C/C=C3\CO[C@@H]4[C@H](O)C(C)=C[C@@H](C(=O)O1)[C@]34O)O2 | GABA-A receptor; alpha-1/beta-2/gamma-2 (Rattus norvegicus, UniProt P18508+P62813+P63138) | membrane potential, agonist, QP-DHM fluorescence | HEK293 expressing GABAA | – | relative to: GABA | maximal response | 72% |
| COc1cccc(OC)c1C(=O)N[C@@H]1C(=O)N2[C@@H]1SC(C)(C)[C@@H]2C(=O)O | Penicillin-binding protein 1A (pbpA, Streptococcus pneumoniae, UniProt Q8DR59) | inhibitor | – | – | – | kinact/KI | 5.4 ± 1.2 M⁻¹ s⁻¹ |
| COc1ncccc1-c1cnn2ccc(N3CCN(C(=O)OC(C)C)CC3)nc12 | Ribosomal protein S6 kinase alpha-1, C-terminal kinase domain (RPS6KA1, Homo sapiens, UniProt Q15418) | KINOMEscan binding | – | 1 µM | relative to: untreated control | remaining binding | 100% |
| Cc1[nH]c(C)c(S(=O)(=O)Nc2ccc(S(F)(F)(F)(F)F)cc2)c1C(=O)N1CCC(F)(F)C1 | DRD3 | saturation binding | – | 100 µM, added: [3H]dopamine | – | Bmax | 1690 ± 300 fmol/mg |
| CNc1cc(OC)c(C(=O)NC2CCN(Cc3ccccc3)C2C)cc1Cl (centres unmarked) | Cholinesterase (BCHE, Homo sapiens, UniProt P06276) | – | – | concentration not given, Triton | – | efficacy | -82.9 ± 22.2% |
| CC[C@]1(O)C[C@H]2CN(CCc3c([nH]c4ccccc34)[C@@](C(=O)OC)(c3cc4c(cc3OC)N(C=O)[C@H]3[C@@](O)(C(=O)OC)[C@H](OC(C)=O)[C@]5(CC)C=CCN6CC[C@]43[C@@H]65)C2)C1 | Plasmodium falciparum | – | 7G8 | – | – | IC50 | 1000 nM |

| SMILES | tested on | test | test system | conditions | scale | quantity | result |
| --- | --- | --- | --- | --- | --- | --- | --- |
| COc1cc(N)c(Cl)cc1C(=O)NC1CN2CCC1CC2 (centres unmarked) | GPR37 (Homo sapiens, UniProt O15354) | β-arrestin recruitment, TANGO luminescence | – | concentration not given | relative to: basal luminescence | log2 fold change | -0.2 |
| COc1cc(Nc2ncc(F)c(Nc3ccc4c(n3)NC(=O)C(C)(C)O4)n2)cc(OC)c1OC | Mitogen-activated protein kinase 4 (MAPK4, Homo sapiens, UniProt P31152) | binding, KINOMEscan | – | 10 µM, ERK4 kinase | – | inhibition | 14% |
| O=C(Nc1cccnn1)N1CCC(=Cc2cccc(Oc3ccc(C(F)(F)F)cn3)c2)CC1 | CCKBR | radioligand binding | – | concentration not given | – | inhibition | 5% and 9% |
| CCN(CC)CCNc1ccc(CO)c2sc3ccccc3c(=O)c12 | Cholinesterase (BCHE, Homo sapiens, UniProt P06276) | – | – | concentration not given, Triton | – | efficacy | -104 ± 9.73% |
| NS(=O)(=O)C(F)(F)F | Carbonic anhydrase 1 (CA1, Homo sapiens, UniProt P00915) | urea denaturation shift, Trp fluorescence | – | 10 µM, pH 6.0 | – | binding free energy | -9.2 kcal/mol |
| Clc1ccc(-c2ccccc2Cl)cc1 | Androgen receptor (AR, Homo sapiens, UniProt P10275) | reporter gene, antagonist | – | 40 µM, added: DHT 2 nM | relative to: DHT 2 nM | maximum activity | 18% |
| COc1ccc(N2C(=O)N(c3c(C)cccc3Cl)Cc3cnc(Nc4ccc(C5CCN(C)CC5)cc4OC)nc32)nc1 | Serine/threonine-protein kinase DCLK2 (DCLK2, Homo sapiens, UniProt Q8N568) | kinase activity, inhibitor | – | 0.5 µM, DCAMKL2 | – | inhibition | 11% |
| CC[C@H](CO)Nc1nc(NCc2ccccc2)c2ncn(C(C)C)c2n1 | Homeodomain-interacting protein kinase 1 (HIPK1, Homo sapiens, UniProt Q86Z02) | KINOMEscan | – | 10 µM | direction not given | binding score | 5.9 |
| C[C@H]1CN(c2n[nH]c3nc(N[C@H]4CC[C@H](NS(=O)(=O)CCC(F)(F)F)CC4)ncc23)CCO1 | Zinc transporter 7 (Homo sapiens, UniProt Q8NEW0) | Kinobeads competition, item: SLC30A7 | – | 0.16 µM, unit not given | relative to: vehicle | remaining binding | 1.01 |
| [2H]c1c([2H])c([C@]2([2H])CCCN2C(=O)C(C)(C)Oc2ccc3cn[nH]c3c2)c([2H])c([2H])c1C([2H])([2H])[2H] | Interleukin-1 receptor-associated kinase 4 (IRAK4, Homo sapiens, UniProt Q9NWZ3) | KINOMEscan | – | 1 µM | relative to: DMSO control | remaining binding | 88% |
| O=C(O)C(F)(F)OC(F)(F)C(F)(F)OC(F)(F)C(F)(F)OC(F)(F)C(F)(F)C(F)(F)C(F)(F)F | Fatty acid-binding protein, brain (Homo sapiens, UniProt O15540) | binding, affinity selection mass spectrometry | – | 100 nM, pooled screen | relative to: other proteins | fold change | 54 |
| C=C(CN(C(=O)c1c(C(F)F)nn(C)c1F)C1CC1)c1ccc(Cl)cc1Cl | SDHD/SDHC/SDHB (Sus scrofa, UniProt A5GZW8+D0VWV4+Q007T0) | enzyme activity, inhibitor, DCIP reduction | pig | 0.4 µM, added: DCIP 20 µM | – | reaction velocity | 0.00382 µM/s and 0.0034 µM/s and 0.00291 µM/s |
| c1cc(N2CCNCC2)c2cc[nH]c2c1 | Muscarinic acetylcholine receptor M4 (CHRM4, Homo sapiens, UniProt P08173) | ERK1/2 phosphorylation, agonist | CHO cells | – | – | Emax | < 10% |
| Nc1c(S(=O)(=O)O)cc(Nc2ccc(Nc3nc(Cl)nc(Nc4cccc(S(=O)(=O)O)c4)n3)c(S(=O)(=O)O)c2)c2c1C(=O)c1ccccc1C2=O | Protein-glutamine gamma-glutamyltransferase (TGM2, Homo sapiens, UniProt P21980) | enzyme activity, inhibitor | – | added: Triton X-100 0.02% | – | potency | decreased |
| CCOC(=O)Nc1ccc(NCc2ccc(F)cc2)nc1N | Plasmodium falciparum | – | 3D7 | – | – | IC50 | 3160 nM |
| Nc1ncnc2c1ncn2[C@@H]1O[C@H](COP(=O)(O)OP(=O)(O)NP(=O)(O)O)[C@@H](O)[C@H]1O | Cell cycle histidine kinase CckA, cytoplasmic region (Caulobacter vibrioides, UniProt Q9X688) | ITC | – | 12 °C, added: c-di-GMP 100 µM | – | -TΔS | -3 kcal/mol |
| Cc1cn([C@H]2C[C@H](O)[C@@H](COP(=O)(O)OP(=O)(O)OP(=O)(O)O)O2)c(=O)[nH]c1=O | Gag-Pol polyprotein, reverse transcriptase (gag-pol, Human immunodeficiency virus type 1 group M subtype B, UniProt P04585, K653A) | nucleotide misincorporation, steady-state kinetics | – | K66A RT, added: matched template/primer, template T | – | kcat | 0.0362 ± 0.0203 s⁻¹ |
| CN1CCN(c2cc(-c3ccncc3)c(-c3ccc4ccccc4c3)nn2)CC1 | CCKBR | agonist, FLIPR | – | 12.5 µM | – | activation | 1.7% |
| CCCCn1c(-c2ccccc2)nc(-c2ccccc2)c1CN(Cc1ccc2c(c1)OCO2)Cc1ccc2c(c1)OCO2 | Cholinesterase (BCHE, Homo sapiens, UniProt P06276) | – | – | concentration not given, Triton | – | efficacy | -92.6 ± 1.54% |
| O=c1c2ccccc2oc2cc(OCCCCc3ccccc3)ccc12 | Acetylcholinesterase (ache, Electrophorus electricus, UniProt O42275) | enzyme activity | – | 0.36 µM, added: substrate 3.45 mM | higher = faster reaction | reaction velocity | 0.003 a.u. |

Repeated from above:
| SMILES | tested on | test | test system | conditions | scale | quantity | result |
| --- | --- | --- | --- | --- | --- | --- | --- |
| Cc1onc(-c2c(Cl)cccc2Cl)c1C(=O)N[C@@H]1C(=O)N2[C@@H]1SC(C)(C)[C@@H]2C(=O)O | Penicillin-binding protein 2B (Streptococcus pneumoniae, UniProt P0A3M6) | inhibitor | – | – | – | kinact/KI | 3300 ± 620 M⁻¹ s⁻¹ |
| CCN(CC)C(=O)Oc1ccc(/C=C/C(=O)NC2CCN(Cc3ccccc3)CC2)cc1OC | Cholinesterase (BCHE, Equus caballus, UniProt P81908) | Ellman | equine serum BuChE | – | relative to: AChE IC50 over BuChE IC50 | selectivity ratio | 0.7 |
| CN(C(=O)n1cnc(-c2ccc[n+]([O-])c2)c1)C1CCCCC1 | Alpha-1B adrenergic receptor (Adra1b, Rattus norvegicus, UniProt P15823) | radioligand binding | – | 10 µM, added: [3H]prazosin | – | inhibition | 4% |
